# Results from different studies.
# “And” joins repeats or separate records; there may be more than shown.
# Target: Carbonic anhydrase 9 (CA9, Homo sapiens, UniProt Q16790)
# Read-out: enzyme activity
# Mode: inhibitor
Structure (SMILES),test,setting,measurement,value
C[C@@H]1O[C@@H](NNC(=O)Nc2ccc(S(N)(=O)=O)cc2)[C@H](O)[C@H](O)[C@H]1O,,,IC50,128 nM
COCCOc1cc2ncnc(Nc3cccc(-c4cn(Cc5ccc(C(=O)Nc6ccc(S(N)(=O)=O)cc6)cc5)nn4)c3)c2cc1OCCOC,stopped-flow,,Ki,40 nM
O=c1ccc2cc(OC3O[C@H](CO)[C@@H](O)[C@H](O)[C@H]3O)c(OC3O[C@H](CO)[C@@H](O)[C@H](O)[C@H]3O)cc2o1 (stereo partly drawn),,,IC50,1010 nM
CC(C)c1ccc2c(c1)CC[C@H]1[C@](C)(C(=O)O)CCC[C@]21C,stopped-flow,pH 7.4,IC50,93.3 nM and ~93 nM and 93.4 nM
NS(=O)(=O)c1ccc(NC(=O)NN[C@@H]2OC[C@@H](O)[C@H](O)[C@H]2O)cc1,,,IC50,88 nM
NS(=O)(=O)c1ccc(C(=O)O)cc1,,,IC50,1200 nM
Cc1ccc(S(=O)(=O)NC(C)c2ccccc2)cc1 (stereo not drawn),,,IC50,2010 nM
C[C@@H]1O[C@H](NC(=O)c2ccc(S(N)(=O)=O)cc2)[C@H](O)[C@H](O)[C@H]1O,absorbance,,IC50,760 nM
COCCOc1cc2ncnc(Nc3cccc(-c4cn(CCc5ccc(S(N)(=O)=O)cc5)nn4)c3)c2cc1OCCOC,stopped-flow,,Ki,9.3 nM
NS(=O)(=O)c1ccc(NC(=O)NN[C@@H]2O[C@H](CO)[C@H](O)[C@H](O)[C@H]2O)cc1,,,IC50,64 nM
COCCOc1cc2ncnc(Nc3cccc(-c4cn(CC(=O)Nc5ccc(S(N)(=O)=O)cc5)nn4)c3)c2cc1OCCOC,stopped-flow,,Ki,443 nM
NS(=O)(=O)c1ccc(NC(=O)NN[C@@H]2O[C@H](CO)[C@@H](O)[C@H]2O)cc1,,,IC50,132 nM
C[C@H]1OC(OC[C@@H]2OC(Oc3cc4oc(=O)ccc4cc3O)[C@@H](O)[C@H](O)[C@H]2O)[C@H](O)[C@@H](O)[C@@H]1O (stereo partly drawn),,,IC50,248 nM
Cc1ccc(S(=O)(=O)Nc2ccccc2Sc2ccccc2)cc1,,,IC50,770 nM
Cc1cc(C)cc(C(=O)Nc2cccc(S(N)(=O)=O)c2)c1,,,IC50,14600 nM

# Excerpt of the above:
Structure (SMILES),test,setting,measurement,value
C[C@@H]1O[C@@H](NNC(=O)Nc2ccc(S(N)(=O)=O)cc2)[C@H](O)[C@H](O)[C@H]1O,,,IC50,128 nM
